Literature values that unrelated publications cite.
Numbers after ± are the reported error.

CCCCCCCC/C=C\CCCCCCCCOP(O)(O)=S — EC50 (LPA2 receptor; agonist): 124 ± 15 nM
CC(C)[C@H](NC(=O)[C@H](CO)NC(=O)[C@@H](N)CC(=O)O)C(=O)N[C@H]1CSC(=O)[C@H](Cc2ccccc2)NC(=O)[C@H](Cc2ccc(O)cc2)NC(=O)[C@H](CO)NC(=O)[C@H](C)NC1=O — activity (AgrC-III Staphylococcus epidermidis; agr signalling; concentration not given): inhibited
O=[N+]([O-])c1ccc(-c2cc(C3CC4CCC3N4)cnc2F)cc1 (racemic) — relative antagonist potency (human α4β2 nicotinic receptor; antagonist; baseline: dihydro-β-erythroidine): 17 fold
CC(=O)N[C@H]1[C@@H](OC[C@H](NC(=O)CNC(=O)[C@@H]2CCCN2C(=O)[C@H](C)NC(=O)[C@@H]2CCCN2C(=O)[C@@H](N)CCCNC(=N)N)C(=O)N[C@H](C(=O)N[C@@H](C)C(=O)N2CCC[C@H]2C(=O)N2CCC[C@H]2C(=O)N[C@@H](C)C(=O)N[C@@H](Cc2c[nH]cn2)C(=O)NCC(=O)O)[C@@H](C)O)O[C@H](CO)[C@H](O)[C@@H]1O — kon (16 A monoclonal antibody; SPR): 33500 M⁻¹ s⁻¹
N=C(N)NCCC[C@H](NC(=O)[C@@H]1CCCN1C(=O)[C@@H]1CSSC[C@H](N)C(=O)N[C@@H](Cc2ccc(O)cc2)C(=O)N[C@@H](Cc2ccccc2)C(=O)N[C@@H](CCC(N)=O)C(=O)N[C@@H](CC(N)=O)C(=O)N1)C(=O)NCC(N)=O — species selectivity ratio (oxytocin receptor; calcium mobilization; baseline: human over macaque): ~10 fold
CSC[C@H]1CN(Cc2c[nH]c3c(N)ncnc23)C[C@@H]1O — Ki (MTA/SAH nucleosidase Escherichia coli; inhibitor): 0.002 nM
Nc1c(C(=O)O)ncn1C1OC(COP(=O)(O)O)C(O)C1O (stereo not shown) — Km (Escherichia coli PurE; substrate): 23 µM
N=C(N)Nc1ccc(OC(=O)c2ccc(NC(=N)N)cc2)cc1 — inhibition (dengue virus NS2B-NS3 protease; 50 µM, with: substrate 50 µM): 98.1%
[2H]C([2H])([2H])C([2H])([2H])C([2H])([2H])OC(C(=O)OC1CCNCC1)(c1ccccc1)c1ccccc1 — KI (CYP3A, human; time-dependent inhibitor; human liver microsomes; with: midazolam): 1.02 µg/mL
O=C(c1cccc2ccccc12)c1nc2ccccc2n1CCCCCF — selectivity ratio (cannabinoid CB2 receptor; binding; baseline: CB1 over CB2): > 10
CC[C@H](C)[C@@H]1NC(=O)[C@H](COP(=O)(O)O)NC(=O)[C@H](CCSC)NC(=O)CSC[C@@H](C(N)=O)NC(=O)[C@H](C)NC(=O)[C@H](C(C)C)NC(=O)[C@H](Cc2ccc(OP(=O)(O)O)cc2)NC1=O — activity (PP2A; enzyme activity; concentration not given): inactive
COc1ccc2sc3c(c2c1)SCCNC3=O — potency ratio (protein kinase D isoforms; inhibitor; baseline: compound over CID755673): ≥ 2 fold
CN(C)c1ccc(/C=C/C(=O)c2ccc(OC(=O)N3CCCC3)cc2O)cc1 — inhibition (amyloid beta 1-42; self-induced aggregation; 25 µM): 89.5%
